# Assay results pooled from the literature.
# Each numbered part is a random draw from the data of one study; scales do not carry over between parts. Changes are numbered by the printed parent chain.

# Set 1
# Target: NFE2L3, bZIP domain (human)
# Method: DHFR protein complementation
# Medium: yeast
# Notes: single substitutions, most at no-binding floor
# Relative to: wild-type JUN-FOS pair
# Reading: higher = stronger binding
# Parent: JUN, bZIP domain (human); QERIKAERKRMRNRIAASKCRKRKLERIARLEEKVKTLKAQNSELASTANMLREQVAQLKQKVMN; partner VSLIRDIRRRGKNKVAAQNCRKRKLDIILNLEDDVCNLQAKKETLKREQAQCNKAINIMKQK
Variant,binding fitness [natural log]
Q41G,-1.5
E54N,-1.25
L52C,-1.39
E44G,-1.4
S43N,-1.16
Q55G,-1.5
E33T,-1.48
L45E,-1.52
K39I,-1.6
E33V,-1.49
T48A,-1.43
E32P,-1.49
L31Q,-1.55
V56N,-1.55
K39H,-1.51
I28N,-1.58
N42G,-1.54
K34G,-1.43

# Set 2
# Target: RING finger protein unkempt homolog, zinc fingers 1-6, GST-SBP tag (UNK, Homo sapiens, UniProt Q9C0B0, residues 30-357)
# Chain of UniProt Q9C0B0 (30-357, looked up): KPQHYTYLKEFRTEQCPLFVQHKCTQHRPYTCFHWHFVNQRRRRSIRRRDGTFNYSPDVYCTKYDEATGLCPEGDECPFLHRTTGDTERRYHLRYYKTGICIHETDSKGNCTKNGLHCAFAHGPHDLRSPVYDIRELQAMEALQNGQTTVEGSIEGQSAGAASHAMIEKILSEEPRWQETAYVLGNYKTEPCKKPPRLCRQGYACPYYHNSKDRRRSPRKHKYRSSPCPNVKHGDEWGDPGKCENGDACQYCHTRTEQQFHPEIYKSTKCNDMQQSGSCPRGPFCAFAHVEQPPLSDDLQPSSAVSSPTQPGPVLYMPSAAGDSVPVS
# Method: RNA Bind-n-Seq
# Molecule type: RNA
# Medium: in vitro
# Concentration: not given
# Notes: RNA with constant flanks, ends assumed
# Relative to: input RNA pool
# Reading: higher = stronger binding
# Constant ends, left off below: GGGAGUUCUACAGUCCGACGAUC … CAACAGAGGAUUGAGCAUCA
Sequence,bound/input enrichment [ratio]
ACAGUUGUGCCACAAGUGCCCACCUCUCCUAAAUCCAGCCUUAGCGUCCAACCUGGAUUCCCCGCUGAUCUUAACAGGACAUUGCAGCGCAAGUCUAUCACGCGGCAUGGCUCCCUGUCC,0.168
UUUGGUGCACAAAAUCCUUCUGUGGGCAAAACUUUGUUUUUGUUUUGCACAGUAAGAAACAACCGGCAAGCGUUAUGUUUUUGGUAAGUUAACUAUGAAAGCUUUCUUAUUUUUAUUAUU,0.69
UGCUAGCUCAAGAAGCACCAGAGGUAUAUACAGAGUAUUGGGAUCAGAUCCAGGAUCCAUAACCGUUUCUCACCUUGAAUCAAGGAUUUAUAUGAUAUUCUUCUCAGAUUUACUUUGUGU,0.123
ACCGUGCCCUAGAAUUUGCCCCUGCCUGCCAUCGCUUCAAAAUCCUCAAGGCAGAAUGUUCCGCAAUGCUGGGUCGUUAUCCAGAAGCACAGUCUGUGGCUAGUGACAUUCUACGAAUGG,0.346
UGGGUGAUGGAGGAAAUGAGAGAGGAAUGCUCUUGAAAGGUGGUCUGUGGAUCUGUCUGAACCGAAAGAGCACAGUAAGUAUGCAUUGCCGGAGAAAACGUCCUUGAAGCUGCUUGUCUC,0.115
AUGAGAAACAGUAUCUUAGCCCAAGUUCUGGAUCAGUCAGCCCGGGCCAGAUUAAGUAACUCCGCACUUGUAAAGCCUGAAAAAACUAAAGCAGUGGAGAACUACCUUAUACAGAUGGCG,0.189
GGUCCUGGCCCCUUACAAGAGAGAUCUCUCUUUGAGAAAAAGAGGGGCGCUCCUCCAAGCCGCAAUAUUGAAGACUUCCAUGGACUCUUACCGAAGGGUUAUCCCCAUCUGUGCUCUAUA,0.149
UUCUGUUUGUGCCCAGUGAUGUCUUUCCUUGUCUUCCUUUUGACUGUAUUUUAAGAUUACUUCCGAUGAUUCUGUGCAAUGUUUAUGACCUUUCCUACCCUUCUAAUGUUCAGUUAACAC,0.59
ACAAAAAAAUGUUGUAGUUGCAGAACUUAGUUUAUAAAAACAAAGAAUGUGUAUUUCUUCAACCGCCGGGUAUUUGGAUUGUUCUCUUGAUAAUAUUUGAAUGUGACUCUUGGAUUUAAG,0.934
GUGACUAUAUAAAUAUCAAAACAUGUUCACUUUGUAGGACAAAAUUAUGUUGAAAAGUUCCCGCUUAAGUGUUGGCACUUUUAUGGGGGGGAAAUCAGUUUUAAAACUAAGACUUCCAUG,0.209
AAAUUUAAGUUUUCUUGUAUUGAAAAUAACCUAUGAUUGUAUGUUUUGCAUUCCUAGAAGCCGGUUAACUGUGUUUUUAAAUUGUUAUAACUUCACACCUUUUUGAAAUCUGCCCUACAA,0.286

# Set 3
# Target: CCNE2, cyclin fold, Cln2 fusion (human)
# Method: yeast growth competition, sequencing
# Medium: yeast
# Notes: weak parent motif
# Relative to: not given
# Reading: higher = stronger binding
# Parent: CDC6 docking peptide (human); TLKGRRLVFDNQL
Variant,normalised enrichment score
G4P,1.48
R5F,0.388
L2H,0.0673
R6H,-0.758
Q12I,0.582
D10C,1.11
N11V,0.148
R6K,0.206
R6W,-0.255
L7F,-0.0611
K3H,0.294
D10W,0.462
L7T,0.285
L13H,0.119
V8F,0.0856
F9N,-0.0971

# Set 4
# Target: Hepatocyte nuclear factor 3-beta, forkhead domain (FOXA2, Homo sapiens, UniProt Q9Y261, residues 142-269)
# Method: protein-binding microarray
# Molecule type: double-stranded DNA, one strand shown
# Medium: in vitro
# Concentration: not given
# Notes: k-mer, scored over probes, only values ≥0.25
# Reading: higher = stronger binding
# Residues (chain): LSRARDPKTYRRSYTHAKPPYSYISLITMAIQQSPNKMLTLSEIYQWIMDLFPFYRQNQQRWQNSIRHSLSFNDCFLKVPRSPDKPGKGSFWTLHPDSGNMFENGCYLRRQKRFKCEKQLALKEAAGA
Sequence,E-score
ATTCAGTA,0.252
GTAACAGA,0.278
AAATATAA,0.362
GTTAGACA,0.297
ATACAACA,0.367
ATTTATAG,0.274
ACATATCA,0.366
ACATTTAT,0.269
AATATGTC,0.311
GAATAGCA,0.255

# Set 5
# Target: ABI1, truncated, D143A, DHFR fusion (Arabidopsis thaliana)
# Method: DHFR PCA, deep sequencing
# Medium: yeast
# Notes: methotrexate growth selection, single substitutions
# Together with: (+)-ABA 58 µM
# Relative to: wild-type fitted maximum
# Reading: higher = stronger binding
# Parent: PYL1, truncated, DHFR fusion (Arabidopsis thaliana); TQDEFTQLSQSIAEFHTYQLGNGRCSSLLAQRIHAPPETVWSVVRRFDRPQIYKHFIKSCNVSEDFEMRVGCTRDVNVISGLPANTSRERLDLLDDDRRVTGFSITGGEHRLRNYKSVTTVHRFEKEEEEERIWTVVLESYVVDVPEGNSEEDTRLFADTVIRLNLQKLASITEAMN; partner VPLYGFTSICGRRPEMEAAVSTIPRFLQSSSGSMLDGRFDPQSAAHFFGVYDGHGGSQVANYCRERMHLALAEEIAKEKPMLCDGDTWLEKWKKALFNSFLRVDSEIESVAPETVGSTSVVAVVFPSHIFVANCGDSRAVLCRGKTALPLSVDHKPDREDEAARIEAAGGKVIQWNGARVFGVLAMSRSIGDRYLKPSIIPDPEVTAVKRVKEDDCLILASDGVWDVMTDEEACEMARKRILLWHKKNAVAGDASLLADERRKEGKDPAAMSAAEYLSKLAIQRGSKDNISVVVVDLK
Variant,relative binding score [%]
I162H,10.7
S80W,20.2
T154N,-11.9
D65F,72
G148R,55
A170G,73.2
S9P,53.7
E147R,73.6
E125I,98.8
S9M,77.7
C72L,65.6
D97T,92.9
A30Q,80.6
E67Y,74
L156E,70.9
L28E,2.74
P37K,4.03
Q10F,55.6
I57D,2.69
M68G,68.6
S117P,12
Q10M,73.3
L169N,-8.8
S80K,37.9

# Set 6
# Target: Interferon regulatory factor 5, full length, phosphomimetic (IRF5, Homo sapiens, UniProt Q13568-2, residues 1-514, K96S/S451D/S453D/S456D/S462D)
# Method: protein-binding microarray
# Molecule type: double-stranded DNA, one strand shown
# Medium: in vitro
# Concentration: 250 nM
# Notes: 60-bp whole probe
# Together with: salmon DNA 0.4 mg/ml
# Relative to: random background probes
# Reading: higher = stronger binding
# Constant ends, left off below: GCCTAGCAC … GTCTTGATTCGCTTGACGCTGCTG
Sequence,log fluorescence
TTAGAACTGAGTATCGATGAGTGCTAG,4.66 z-score
TTAGGACTGAGTTTCGGTTAGTGCTAG,9.22 z-score
GGGAGTGTCAATAATGACCACGTGCTA,0.00528 z-score
TTAGTACTGGGGACTGGATTAGTGCTA,-0.189 z-score
TTAGGTTTCGGATATCGGTTAGTGCTA,8.09 z-score
GATGGACTGGGTCTCGGGACGTGCTAG,-0.348 z-score
TTAGAACTGAGTTTCGGTTAGTGCTAG,10.2 z-score
ATAGGTATCGGTTTCGGTTAGTGCTAG,11 z-score
TTAGGACTAGGGTATCGGTTAGTGCTA,1.8 z-score
GAGAGTAGCTTTCTGAGGGCGTGCTAG,0.417 z-score
TTAGAACTGAGTATCCATTAGTGCTAG,0.112 z-score
TCACCTCTCACCTCGGCACTGTGCTAG,0.0296 z-score
GATGGTATCGGGACTGGGGACGTGCTA,1.76 z-score
GACGGACAGCTTATCCTGACGTGCTAG,-0.629 z-score
GACGGACTGGACTTTCGTGACGTGCTA,1.12 z-score
TTAGAAATGGGGTTTCGATTAGTGCTA,6.41 z-score
TTAGGTCTCGGTCCCGGTTAGTGCTAG,0.254 z-score

# Set 7
# Target: Histone acetyltransferase KAT6A, winged helix 2, GST fusion (KAT6A, Homo sapiens, UniProt Q92794, residues 85-181)
# Method: protein binding microarray
# Molecule type: double-stranded DNA, one strand shown
# Medium: in vitro
# Concentration: not given
# Notes: 8-mer, flanks averaged, mean of 2 arrays, mostly near background
# Relative to: not given
# Reading: higher = stronger binding
# Construct (chain): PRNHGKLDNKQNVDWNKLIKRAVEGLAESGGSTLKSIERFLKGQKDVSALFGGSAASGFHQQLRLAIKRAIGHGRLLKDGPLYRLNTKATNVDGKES
Sequence,E-score
CGAGTGCC,0.0322
AACTCAGT,-0.11
ATGTAGCA,0.0591
CGAGTAAC,0.0755
GCTCCGCC,0.287
CATCAGCG,-0.0787
CATTAATA,0.108
CCGGGGGA,0.163
TTATTAAA,0.185
CGTGACGC,0.00356
CGCGTGCA,-0.0636
ACTGGAGC,0.0139
TGTTCGAA,0.168
GGCTATGA,0.0169
CCAGACGG,0.0817
ATCAGGAC,0.0165
CCGGTGAC,0.024
CGGGGTCA,0.0868
AACGACTA,-0.078
CATGGTCC,-0.0605
TGCCAGCA,0.156
CCAGACGC,-0.0316
AGCCTAAC,-0.108

# Some of these lines once more (set 6):
Sequence,log fluorescence
TTAGGACTGAGTTTCGGTTAGTGCTAG,9.22 z-score
TTAGAACTGAGTATCGATGAGTGCTAG,4.66 z-score
TTAGGACTAGGGTATCGGTTAGTGCTA,1.8 z-score
GACGGACTGGACTTTCGTGACGTGCTA,1.12 z-score
GAGAGTAGCTTTCTGAGGGCGTGCTAG,0.417 z-score
TTAGGTTTCGGATATCGGTTAGTGCTA,8.09 z-score
GGGAGTGTCAATAATGACCACGTGCTA,0.00528 z-score
TTAGGTCTCGGTCCCGGTTAGTGCTAG,0.254 z-score
TTAGAACTGAGTATCCATTAGTGCTAG,0.112 z-score
GACGGACAGCTTATCCTGACGTGCTAG,-0.629 z-score
TTAGAAATGGGGTTTCGATTAGTGCTA,6.41 z-score
GATGGACTGGGTCTCGGGACGTGCTAG,-0.348 z-score
TCACCTCTCACCTCGGCACTGTGCTAG,0.0296 z-score
ATAGGTATCGGTTTCGGTTAGTGCTAG,11 z-score
GATGGTATCGGGACTGGGGACGTGCTA,1.76 z-score
TTAGAACTGAGTTTCGGTTAGTGCTAG,10.2 z-score
TTAGTACTGGGGACTGGATTAGTGCTA,-0.189 z-score
